Results of several laboratories.
Protocols differ between the studies behind these lines.

`CC(=O)O[C@H]1C(=O)[C@@]2(C)[C@H]([C@H](OC(=O)c3ccccc3)[C@]3(O)C[C@H](OC(=O)[C@H](O)[C@@H](NC(=O)c4ccccc4)c4ccccc4)C(C)=C1C3(C)C)[C@]1(OC(C)=O)CO[C@@H]1C[C@@H]2O` — result for “adverse event incidence”: 37% (refers to: Diarrhoea; patients with advanced solid tumours; intravenous, dose not given, all grades, possibly related to drug).
Under “adverse event incidence”, `CNC(=O)c1ccc(-c2cnc3ncc(Cc4ccc5ncccc5c4)n3n2)cc1F` is recorded as 0% (phase 1 clinical trial, refers to: upper abdominal pain; gastric cancer expansion cohort; oral, 600 mg twice daily, grade 3 or 4).
`NCCONC(=O)[C@@H]1CC[C@@H]2CN1C(=O)N2OS(=O)(=O)O`: “adverse event incidence” 0% (refers to: infusion-related reaction; healthy Chinese men; intravenous, 2 g, treatment-emergent).
For `CC[C@H](C)CCCCC(=O)N[C@@H](CCN)C(=O)N[C@H](C(=O)N[C@@H](CCN)C(=O)N[C@H]1CCNC(=O)[C@H]([C@@H](C)O)NC(=O)[C@H](CCN)NC(=O)[C@H](CCN)NC(=O)[C@H](CC(C)C)NC(=O)[C@@H](Cc2ccccc2)NC(=O)[C@H](CCN)NC1=O)[C@@H](C)O`, “adverse event incidence” read 37.5% (refers to: dry mouth; normal renal function; intravenous, 0.75 mg/kg).
`Cc1c(C(=O)O)ccc2c3n(nc12)[C@@H]1[C@H](C3)N(CC2CC2)[C@@]2(C(=O)Nc3cc(Cl)ccc32)[C@H]1c1cccc(Cl)c1F`: “adverse event incidence” 22.2% (phase Ia trial, refers to: Alopecia; cancer patients; oral, dose not given, all patients all grades).
`O=C1CCc2ccc(OCCCCN3CCN(c4cccc(Cl)c4Cl)CC3)cc2N1` — result for “adverse event incidence”: 0% (refers to: Xerostomia; patients, CYP2D6 ultrarapid metabolizers; dose not given, long-acting oral or depot).
For `CC(C)n1c(Nc2cccnc2)nc2cnc(Nc3ccc(N4CCN(C)CC4)cc3)nc21`, “adverse event incidence” read 7.1% (refers to: Hypercalcemia; healthy male subjects; oral, 100 mg, added: gemfibrozil).
Under “adverse event incidence”, `FC(F)(F)c1ccc(CNc2ccc(Cc3c[nH]c4ncc(Cl)cc34)cn2)cn1` is recorded as 0% (refers to: Constipation; patients with advanced solid tumours; oral, dose not given, grade 3 and 4, possibly related to drug).

Some of these lines once more:
Under “adverse event incidence”, `CNC(=O)c1ccc(-c2cnc3ncc(Cc4ccc5ncccc5c4)n3n2)cc1F` is recorded as 0% (phase 1 clinical trial, refers to: upper abdominal pain; gastric cancer expansion cohort; oral, 600 mg twice daily, grade 3 or 4).
